Measurements of several laboratories.
Parts stem from different laboratories: compare values within a part only. Positions count from the first letter of the parent shown.

Block 1
Target: Prothrombin, mature alpha-thrombin (F2, Homo sapiens, UniProt P00734)
Technique: aptamer microarray, sandwich
Molecule type: DNA with 2'F-ANA
Medium: in vitro
Concentration: 200 nM
Notes: whole 15-mer aptamer, many near background
With: Cy3 exosite-II aptamer, 400 nM
Reading: higher = stronger binding
Strand: GGTTGGTGTGGTTGG
Modification	mean fluorescence intensity
2'F-ANA at 3 6 7 8 9 10 11 13	418 a.u.
2'F-ANA at 1 6 11 15	139 a.u.
2'F-ANA at 7 8 9 10 11 13 14 15	114 a.u.
2'F-ANA at 2 3 4 5 6 8 10 12 13 15	47.3 a.u.
2'F-ANA at 2 4 7 8 11	408 a.u.
2'F-ANA at 2 8 9 10 13 14 15	88.7 a.u.
2'F-ANA at 1 2 4 6 9 14 15	47.5 a.u.
2'F-ANA at 1 3 4 6 9 10 11 13 15	63.7 a.u.
2'F-ANA at 6 7 10 11 12 13	184 a.u.
2'F-ANA at 4 5 8 9 10 11 12 13	49.8 a.u.
2'F-ANA at 2 3 5 6 10 11 14	64.1 a.u.
2'F-ANA at 1 6 8 9 10 11 12 13 15	63.7 a.u.
2'F-ANA at 6 8 10 11 12	181 a.u.
2'F-ANA at 2 3 4 5 6 7 8 10 12 14 15	52.3 a.u.
2'F-ANA at 2 4 6 8 13 15	185 a.u.
2'F-ANA at 2 3 5 6 8 10 12 13 14	86 a.u.
2'F-ANA at 1 2 3 4 5 6 7 11 15	51.7 a.u.
2'F-ANA at 2 5 7 8 9 10 13 14 15	53.3 a.u.
2'F-ANA at 3 8 9 10 11 15	474 a.u.
2'F-ANA at 1 3 4 5 6 8 10 11 13 14	48.5 a.u.
2'F-ANA at 1 2 5 7 10 11 13 14 15	80.2 a.u.
2'F-ANA at 1 5 6 7 8 11 12 14 15	50.3 a.u.
2'F-ANA at 1 2 4 5 9 13 14	46.4 a.u.
2'F-ANA at 3 4 5 7 9 11 13 14	48.7 a.u.
2'F-ANA at 1 4 12 13 15	231 a.u.

Block 2
Target: Transcription factor SOX-2, HMG box (SOX2, Homo sapiens, UniProt P48431, residues 19-118)
UniProt P48431, sequence (19-118, looked up): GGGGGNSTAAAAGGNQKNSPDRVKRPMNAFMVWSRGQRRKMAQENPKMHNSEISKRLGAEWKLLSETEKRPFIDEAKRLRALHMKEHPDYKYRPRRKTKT
Technique: protein-binding microarray
Molecule type: double-stranded DNA, one strand shown
Medium: in vitro
Concentration: not given
Notes: k-mer, scored over probes, only values ≥0.25
Reading: higher = stronger binding
Strand	E-score
ATTGAAA	0.339
CAATTAG	0.325
ATTGTAC	0.401
GAGACAA	0.268
ACTGAAT	0.382
AATTATG	0.423
AACTATT	0.311
TAGAATA	0.339
ATTCATC	0.432
GGAACAA	0.342
CTATTGA	0.373
ACAATGG	0.471
CATTCAC	0.392
ATTAACA	0.262

Block 3
Target: CCNB2, cyclin fold, Cln2 fusion (human)
Technique: yeast growth competition, sequencing
Medium: yeast
Notes: weak parent motif
Relative to: not given
Reading: higher = stronger binding
Parent: RB1 docking peptide (human); PKPLKKLRFDIEG
Substitution	normalised enrichment score
PKPHKKLRFDIEG [L4H]	0.28
PKPLKKLRFDIAG [E12A]	0.29
PWPLKKLRFDIEG [K2W]	0.00181
PKPLKKLRFDIEQ [G13Q]	0.941
PKPLWKLRFDIEG [K5W]	0.253
PKPLKKLRFTIEG [D10T]	0.225
PKPLKKLRYDIEG [F9Y]	-0.382
PKPLKKLRFDYEG [I11Y]	0.205
PKPLKKLYFDIEG [R8Y]	0.661
PKPLKKLRFDDEG [I11D]	0.129
PKPEKKLRFDIEG [L4E]	0.279
PKPLKKLRFDLEG [I11L]	0.88
PKPLKKLRFGIEG [D10G]	1.22
PKPLKKLRFDICG [E12C]	0.539
PKPLQKLRFDIEG [K5Q]	0.139

Block 4
Target: RING finger protein unkempt homolog, zinc fingers 1-6, GST-SBP tag (UNK, Homo sapiens, UniProt Q9C0B0, residues 30-357)
Technique: RNA Bind-n-Seq
Molecule type: RNA
Medium: in vitro
Concentration: not given
Notes: RNA with constant flanks, human and mouse sites, ends assumed
Relative to: input RNA pool
Reading: higher = stronger binding
Shared flanks, not repeated: GGGAGUUCUACAGUCCGACGAUC … CAACAGAGGAUUGAGCAUCA
Target sequence (chain): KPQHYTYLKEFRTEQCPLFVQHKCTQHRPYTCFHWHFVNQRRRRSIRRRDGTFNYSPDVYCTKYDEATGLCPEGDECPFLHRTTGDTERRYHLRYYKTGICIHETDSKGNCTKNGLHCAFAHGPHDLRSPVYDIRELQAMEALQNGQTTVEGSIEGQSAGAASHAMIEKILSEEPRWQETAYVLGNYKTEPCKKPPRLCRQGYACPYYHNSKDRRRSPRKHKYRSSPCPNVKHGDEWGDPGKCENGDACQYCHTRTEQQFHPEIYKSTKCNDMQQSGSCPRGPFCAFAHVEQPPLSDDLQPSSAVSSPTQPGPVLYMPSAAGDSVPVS
Strand	bound/input enrichment [ratio]
CAUUUUACCCUUCGAUUCGAUGAGCUGAAGAUGAGGAACCCCGCUAUUCAGAAUGACUUCAGUUACUAUCGAAGAACAAUAAGUCGUAACCGUAUCAACAACAUGCAUCUAGACAUUGAG	0.426
CAAAGCAACCUUUCCCUUCCCCCGAGUGAUUUUGCGAAACCCCCUUUUCCCUUCAGCUUGCUUAGAUGUUCCAAAUUUAGAAAGCUUAAGGCGGCCUACAGAAAAAGGAAAAAAGGCCAC	1.5
UCCGAGCUAAGGCGCAUGCGUUCCCUGAAAUUGCCGCCACCGGCUCUACCUUCCAGUUUCCAGUUCCGGCCUCCAAGGGGCGGGCAGAAGUUGGAAACAUGCGGCUGUCGGUCGCUGCAG	0.0513
AGAGCCAAGAUGGCUGUCCUCUCUAAGGAGUAUGGAUUUGUGCUUCUCACUGGUGCUGCCAGCUUUGUGAUGGUGCUCCACCUAGCCAUCAACGUGGGCAAAGCCCGCAAGAAGUACAAG	0.21
AGUUUGGGAUUUGGCUCUUACAUCAGUGAAGUAAAAGAAGUCUUGCAAGAGUGUAAAACAGUAGCAUUAAAAAGAAGAAAGGCCAGUUCUCGUUUGGAAAACCUUGGCAUUCCUGAAGAA	1.07
UGGAACUGUUACUGCCUUGUCCUAGAGUUGUCCUGAUCAGGCUUGGGGCCUAGUUACAGAUUAGUCUUAAAGAAUUGCAUUAACUUAAAAAAAAUCAAACCUUGGCAAGAGCUAAAAUAA	3.13
AAUGCUUGUUGGGUGCAUAAACACUUCACGGAAGACAUCCAGACGCGUCAGUACCGCUCCAUAGAGGUUUUAAUAGGAGCGGGGUACAGCACCCCUGCGGACAUCUGGAGCACGGCGUGU	0.242
UCCCGCCUACAGAAAGAUUUUGAGAGACAUUUUAAGGACCUCAGGUUCAUUAAAAAGGACUUAGAACUUUUCUCAAAUCCAUUUAGCUUUAAACCGGAAUAUGCGCCUAUUUCUGUAAGA	3.01
UCUGGUCUCCUUGGAGAAAGGUUCUGUUGCCCUGAUUUAUGAACUCUAUAAUAGAGUAUAUAGGUUUUGUACCUUUUUUACAGGAAGGUGACUUUCUGUAACAAUGCGAUGUAUAUUAAA	2.85
AUGAUCUGGGACACCAGGUGUAACAAAAAAGAUGGAUUUUAUAGACAAGUGAAUCAAAUCAGUGGAGCUCACAAUACUGCAGACAAGCAAACCCCUUCAAAGCCCAAGAAGAAACAAAAU	0.568
CCAUUAAAACAGCAAAUAAAACCCAGUGAAGCAUUUUUUAAAGACUAACAGCUUAAUUAAUUUAGAUAUACUUUAAGAGAAAAACUAUUUUAUCCUUCAUGUGAAUAAUGAAUAACAGUA	8.62

Block 5
Target: Sal-like protein 4, full length isoform A (SALL4, Homo sapiens, UniProt Q9UJQ4, residues 1-1053)
UniProt Q9UJQ4, sequence (whole entry, looked up): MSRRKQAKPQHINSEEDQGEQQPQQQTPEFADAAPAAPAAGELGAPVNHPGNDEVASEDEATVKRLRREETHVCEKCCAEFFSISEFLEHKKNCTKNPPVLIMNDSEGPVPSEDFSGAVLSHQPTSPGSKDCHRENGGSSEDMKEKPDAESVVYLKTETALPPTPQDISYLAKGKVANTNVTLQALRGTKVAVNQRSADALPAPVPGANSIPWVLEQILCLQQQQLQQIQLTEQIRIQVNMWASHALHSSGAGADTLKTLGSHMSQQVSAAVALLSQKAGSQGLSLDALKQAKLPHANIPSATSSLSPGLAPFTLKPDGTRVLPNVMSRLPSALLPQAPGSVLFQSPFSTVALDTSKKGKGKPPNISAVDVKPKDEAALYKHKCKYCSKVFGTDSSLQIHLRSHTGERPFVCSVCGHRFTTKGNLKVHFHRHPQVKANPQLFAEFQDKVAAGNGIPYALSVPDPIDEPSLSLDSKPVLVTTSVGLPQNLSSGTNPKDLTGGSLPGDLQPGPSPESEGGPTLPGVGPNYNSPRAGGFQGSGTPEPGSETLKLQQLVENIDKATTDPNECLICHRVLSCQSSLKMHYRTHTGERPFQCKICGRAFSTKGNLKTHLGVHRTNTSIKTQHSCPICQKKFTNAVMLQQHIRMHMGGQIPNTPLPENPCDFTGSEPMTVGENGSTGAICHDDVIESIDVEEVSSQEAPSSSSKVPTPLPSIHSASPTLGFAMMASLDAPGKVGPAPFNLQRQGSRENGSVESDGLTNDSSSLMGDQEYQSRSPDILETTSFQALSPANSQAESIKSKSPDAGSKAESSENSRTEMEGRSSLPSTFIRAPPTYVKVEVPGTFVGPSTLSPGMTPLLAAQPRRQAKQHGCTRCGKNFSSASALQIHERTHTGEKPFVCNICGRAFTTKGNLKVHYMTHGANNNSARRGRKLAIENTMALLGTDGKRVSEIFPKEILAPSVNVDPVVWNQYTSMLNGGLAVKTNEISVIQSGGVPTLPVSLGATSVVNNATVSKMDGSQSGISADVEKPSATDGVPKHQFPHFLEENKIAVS
Technique: universal PBM
Molecule type: double-stranded DNA, one strand shown
Medium: in vitro
Concentration: 600 nM
Notes: 8-mer, flanks averaged, mean of replicates
Reading: higher = stronger binding
Strand	E-score
CAGGGTGA	-0.173
AATAACCT	0.3
AAGATACA	0.237
AAGATCGT	-0.0653
TATGCCGA	0.148
ACCACGCT	-0.252
AAGGTGAA	-0.0728
CCTGTTAG	0.0137
CTTCAACC	-0.0321
CAAATCAC	0.00084
GAGTATGA	0.181
AGATGTCG	-0.0467
AGCTCATA	0.187
GCGTCAGA	-0.191
CTCGGCTA	-0.208
ATGCTTAA	0.271
CAGCGGCG	-0.227
CGTTATAA	0.197
ATAGAAGA	0.208
AGGAACGC	-0.258
ACACGTCC	-0.123
CACTCAGA	0.113

Block 6
Target: ABI1, truncated, D143A, DHFR fusion (Arabidopsis thaliana)
Technique: DHFR PCA, deep sequencing
Medium: yeast
Notes: methotrexate growth selection, single substitutions
With: (+)-ABA 0 µM
Relative to: wild-type fitted maximum
Reading: higher = stronger binding
Parent: PYL1, truncated, DHFR fusion (Arabidopsis thaliana); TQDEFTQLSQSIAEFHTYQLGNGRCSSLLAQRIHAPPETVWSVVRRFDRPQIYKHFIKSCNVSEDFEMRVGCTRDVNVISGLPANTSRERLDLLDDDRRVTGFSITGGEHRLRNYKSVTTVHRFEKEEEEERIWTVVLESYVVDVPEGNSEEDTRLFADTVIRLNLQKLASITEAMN; partner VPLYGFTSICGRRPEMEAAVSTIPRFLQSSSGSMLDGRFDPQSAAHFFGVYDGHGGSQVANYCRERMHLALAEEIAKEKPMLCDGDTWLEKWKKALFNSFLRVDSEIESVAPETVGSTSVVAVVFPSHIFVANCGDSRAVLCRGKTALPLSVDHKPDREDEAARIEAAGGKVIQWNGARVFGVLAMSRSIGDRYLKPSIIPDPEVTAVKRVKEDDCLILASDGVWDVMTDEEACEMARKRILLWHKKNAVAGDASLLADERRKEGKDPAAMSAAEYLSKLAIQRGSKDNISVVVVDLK
Substitution	relative binding score [%]
A175L	2.84
E125C	42.4
L28K	4.3
V62Y	-2.51
P37C	2.94
L82F	68.9
F66C	7.21
A35G	-0.173
G21A	20.5
F103Q	-4.63
L91Y	6.06
T120A	-3.28
T86K	8.96
G21I	6.86
V70N	2.37
K116Q	25.7
L156W	3.67
A175D	11.6
R132V	16.4
R163Y	-15.5
I105Y	-5.02

Block 7
Target: Histone acetyltransferase KAT6A, winged helix 1, GST fusion (KAT6A, Homo sapiens, UniProt Q92794, residues 1-85)
Technique: protein binding microarray
Molecule type: double-stranded DNA, one strand shown
Medium: in vitro
Concentration: not given
Notes: 8-mer, flanks averaged, mean of 2 arrays, mostly near background
Relative to: not given
Reading: higher = stronger binding
Target sequence (chain): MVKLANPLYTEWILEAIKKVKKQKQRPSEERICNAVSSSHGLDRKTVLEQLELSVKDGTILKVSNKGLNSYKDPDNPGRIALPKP
Strand	E-score
GTATCTGA	-0.0354
GTCCCAGA	-0.126
CTACGCGA	0.181
GGACTCGA	0.0645
CTCGTACA	-0.0727
TCTACAGA	-0.089
AACATGGG	-0.0432
AACATATT	0.000135
GGGCCTGA	0.0187
CCGGACCG	0.205
CGAGAAGC	0.143
AGTTAAAT	-0.0842
CGAGGACG	0.107
TGCAGAAA	-0.0758
AACTTGTG	-0.218
AAACCATA	0.0473
CATGTCGC	0.164
CCGCGCCA	0.307
AGATAGCC	-0.0384

Repeated from above (block 7):
Strand	E-score
GGGCCTGA	0.0187
AACTTGTG	-0.218
CGAGAAGC	0.143
AGATAGCC	-0.0384
CATGTCGC	0.164
GTCCCAGA	-0.126
AAACCATA	0.0473
AGTTAAAT	-0.0842
CTACGCGA	0.181
AACATGGG	-0.0432
AACATATT	0.000135
TGCAGAAA	-0.0758
GTATCTGA	-0.0354
CTCGTACA	-0.0727
TCTACAGA	-0.089
